Assay results from different studies.
Parts stem from different laboratories: compare values within a part only.

Sample 1 — cell line: yeast with cyclin D1-Cln2 chimera; read-out: cell growth; action: binder; method: competitive growth deep sequencing; molecule type: peptide; concentration: concentration not given; setting: peptide tiling library; reading: direction not given
Sequence	growth enrichment score
VRDLSYRLVFLACCVA	-0.679
NFETPEAETPIRSPFK	1.29
NNIRKALSFDNRGEEH	-0.18
DGCSPIKNWSPMRL	1.37
GAEELEDLVHFSVSEL	1.45
FQDSGYNELKSCSFDN	1.26
VLPGGVPSPGASLTSM	1.18
PQWPCGKHKRVLIFAS	-1.18
AEHPKPSACRNLFGPV	1.14
RNRGPKLNAMLRLGVL	-1.89
VLVRTSACRSLFGPVD	0.188
LENIEPLQVSFAVLSS	1.1
KDDDKAWEYEERDRRS	1.32
SGYLTDENEVGFRG	1.19
TRRRLFVENDSP	0.183
QNPCGSKACRRLFGPV	1.36
TSPGPVLLHPSPSTTQ	1.33

Sample 2 — method: protein-binding microarray; molecule type: double-stranded DNA, one strand shown; sample: in vitro; concentration: 2540 nM top; setting: 60-bp whole probe; added: salmon DNA 0.4 mg/ml; baseline: random background probes; reading: higher = stronger binding; all sequences stand within: GCCTAGCAC … GTCTTGATTCGCTTGACGCTGCTG
Target: Interferon regulatory factor 3, full length, phosphomimetic (IRF3, Homo sapiens, UniProt Q14653, residues 1-427, S386D/S396D/S398D/S402D/T404D/S405D)
Construct (chain): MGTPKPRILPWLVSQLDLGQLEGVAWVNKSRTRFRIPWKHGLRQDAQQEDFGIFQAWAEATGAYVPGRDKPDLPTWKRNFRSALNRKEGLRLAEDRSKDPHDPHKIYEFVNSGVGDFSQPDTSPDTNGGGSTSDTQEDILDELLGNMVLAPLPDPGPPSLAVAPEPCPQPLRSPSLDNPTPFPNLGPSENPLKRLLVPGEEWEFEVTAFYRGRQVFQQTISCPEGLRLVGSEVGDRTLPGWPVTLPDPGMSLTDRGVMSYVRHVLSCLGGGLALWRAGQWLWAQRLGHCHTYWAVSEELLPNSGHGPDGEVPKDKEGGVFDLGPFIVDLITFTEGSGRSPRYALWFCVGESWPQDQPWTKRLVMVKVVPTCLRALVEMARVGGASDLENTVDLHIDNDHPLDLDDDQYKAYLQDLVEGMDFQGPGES
Sequence	fitted relative affinity
GACGGACTGGACTTTCGGGCCGTGCTA	-0.52 z-score
TTAGGTAACGACTTTCGGTTAGTGCTA	1.71 z-score
GACGATTTCGGGTATCGAGATGTGCTA	1.87 z-score
GACGGTATCGGTATGGGGACGTGCTAG	3.17 z-score
CAAACACTAATTTTCAATTCGTGCTAG	2.02 z-score
TTAGAACTAAGTATCGATTAGTGCTAG	0.425 z-score
ATAGGACTGGGTCTCGGTTAGTGCTAG	-0.466 z-score
CAGAGCATGGATCTGGGAACGTGCTAG	-0.639 z-score
GACGATCTCAGTTTCAAGACGTGCTAG	1.46 z-score
CGTCATTTCACAGTTAACCAGTGCTAG	1.27 z-score
TAAGGTTTCCTTTTCCTTTAGTGCTAG	12.2 z-score
GACGAACGGGGGACTGGAGACGTGCTA	-0.287 z-score
GACGGTCTCGGACAGGGGACGTGCTAG	-0.0642 z-score
TTGGGTTCCGGTTTCGGTTAGTGCTAG	7.11 z-score
GACGGTCTCGGTCTCGGGATGTGCTAG	1.28 z-score
TGAGCTACAGATGAGGCTCGGTGCTAG	-0.503 z-score
GACGGACTGGGGACTTGGGACGTGCTA	-0.94 z-score
GACGAACTGGCGTATCGAGACGTGCTA	-0.359 z-score
GACGATTTCGACACTGGGGACGTGCTA	1.25 z-score
TCACATTTTGGTTTTCTACTGTGCTAG	1.91 z-score
TGAGGACTGGACACTGGGTTAGTGCTA	-1.2 z-score
GGCGGTTTCGACTTTCGGGACGTGCTA	3.99 z-score

Sample 3 — method: RNA Bind-n-Seq; molecule type: RNA; sample: in vitro; concentration: 365 nM; baseline: no-protein control; reading: higher = stronger binding
Target: RNA binding protein fox-1 homolog 2, RRM domain, GST-SBP tag (RBFOX2, Homo sapiens, UniProt O43251-10, residues 100-194)
Setting: natural RNA segment, single round, ends assumed
All sequences stand within: GGGAGUUCUACAGUCCGACGAUC … UGGAAUUCUCGGGUGCCAA
Construct (chain): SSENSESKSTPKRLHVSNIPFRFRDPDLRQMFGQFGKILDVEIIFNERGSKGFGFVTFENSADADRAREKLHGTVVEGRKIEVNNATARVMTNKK
Sequence	RBNS enrichment (R)
AAAAGGAGAAAGUGAGAGGAGAGUUCUCUGCAUCCUCCCUCCUUGCUUGUCACCCAGUUGCCUUUAAACCAAAUUCUAACCAGCCUAUCCCCAGGUAGGGGGACGUUGGU	0.224
GAGGGAGAUGGCACACGGGGCUCAGCCCUGUUGGGAAACUGGUGUGGAGACCCUUAAAUCCACACUGUGCUCCAAAACUCCCUCUGCUGAUACUCCUUGGAGACACCCUC	0.408
AGGGGCUCUGCUGAAGUGGCCUUCCACUGGAGUCUUGUUCUCAACAGUCCCUUGUGCCAGGUCAGCUAGCAUGGUGGCCUCCUGCAGAGGACUUGGUUUCUCAUCCACUU	0.814
ACCGAUGGAAACAGAUUGAUGCAGAUGGAAGGAGGAAGGGAGACUGGGCCCACUGAUUUCCAGCCCCACCAUGUGUGCUGUUUUCAGAUGUGAUUGAGGGGUGUUCUGCC	0.419
UUCAUUCAAUCCUGAGAGGCCAAUUAGUCUUUAUAAGGCCCAGAUCCUUGUAGUCCAGGUGAUCAGUGGCCAACAACUCCCCAAAGUGGAUAAAACCAAAGAGACAACCG	0.307
AGCCACUUGCUGACCCUGGUUCUUAAGGACACAUGACAUUAGUCCAAUCUUUCAAAAUCUUGUCUUAGGGCUUGUGAGGAAUCAGAACUAACCCAGGACUCAGUCCUGCU	0.194
GACAGUGACCGAUUUCUCUGGGUUGGGCCAAGACUUUAUUUACUGCAUCAUGCAUGACUCACUCAGGGGCCCUUGGGGCCCUCUUCUCUAUGAUAUGAAUACUGUGUGUG	4.96
AAAAGCUUAAAUAUUCUUUCUUUUAAAUGUCUGUUAAGAAUAUGAUGCCAAUGGCUUGAAUUGAGUUCUUUUCAAGAACUGAUAGACUAUUUGGUAUGAAGUAGCAAAGC	0.465
UAGAUGUAGAUUCAUCUUUUAACGUUUCUUCAAAUUUGUUUCUGUCAGGCUUUGUGUUAUUUUAAAUGGUUUUUUAAAAUUUUCUUCUAUGUUUUCAAUUACCUAAAGAC	0.615
ACUCCGAUGGCCAGCAACAACACCGCCAGCAUAGCACAAGCCAGGAAGCUGGUAGAGCAGCUUAAGAUGGAAGCCAAUAUCGACAGGAUAAAGGUGUCCAAGGCAGCUGC	0.198
GAGAACUUUCCCCAGUCACCAUAGACCAUUCUCCUUCCUGAAGGCUUGGGGCAGACCAUUCGUUUAUUUAGAGAAGAGCUAUACAUUCUUCUUUCUGGUCCCAUCUUAAA	0.324
AGAAAUCUAUAGAAAGUGUUCUGUUACAAAAUGUAACUGUUACCAUUGGAAAUUUCACGUCAUAGGAAGUUAGCCUUUAUCUACCAACUUUCAAGAACUUGUUUAAUAAA	0.382

Sample 4 — method: universal PBM; molecule type: double-stranded DNA, one strand shown; sample: in vitro; concentration: 600 nM; reading: higher = stronger binding
Target: Sal-like protein 4, full length isoform A (SALL4, Homo sapiens, UniProt Q9UJQ4, residues 1-1053)
Chain of UniProt Q9UJQ4 (whole entry, looked up): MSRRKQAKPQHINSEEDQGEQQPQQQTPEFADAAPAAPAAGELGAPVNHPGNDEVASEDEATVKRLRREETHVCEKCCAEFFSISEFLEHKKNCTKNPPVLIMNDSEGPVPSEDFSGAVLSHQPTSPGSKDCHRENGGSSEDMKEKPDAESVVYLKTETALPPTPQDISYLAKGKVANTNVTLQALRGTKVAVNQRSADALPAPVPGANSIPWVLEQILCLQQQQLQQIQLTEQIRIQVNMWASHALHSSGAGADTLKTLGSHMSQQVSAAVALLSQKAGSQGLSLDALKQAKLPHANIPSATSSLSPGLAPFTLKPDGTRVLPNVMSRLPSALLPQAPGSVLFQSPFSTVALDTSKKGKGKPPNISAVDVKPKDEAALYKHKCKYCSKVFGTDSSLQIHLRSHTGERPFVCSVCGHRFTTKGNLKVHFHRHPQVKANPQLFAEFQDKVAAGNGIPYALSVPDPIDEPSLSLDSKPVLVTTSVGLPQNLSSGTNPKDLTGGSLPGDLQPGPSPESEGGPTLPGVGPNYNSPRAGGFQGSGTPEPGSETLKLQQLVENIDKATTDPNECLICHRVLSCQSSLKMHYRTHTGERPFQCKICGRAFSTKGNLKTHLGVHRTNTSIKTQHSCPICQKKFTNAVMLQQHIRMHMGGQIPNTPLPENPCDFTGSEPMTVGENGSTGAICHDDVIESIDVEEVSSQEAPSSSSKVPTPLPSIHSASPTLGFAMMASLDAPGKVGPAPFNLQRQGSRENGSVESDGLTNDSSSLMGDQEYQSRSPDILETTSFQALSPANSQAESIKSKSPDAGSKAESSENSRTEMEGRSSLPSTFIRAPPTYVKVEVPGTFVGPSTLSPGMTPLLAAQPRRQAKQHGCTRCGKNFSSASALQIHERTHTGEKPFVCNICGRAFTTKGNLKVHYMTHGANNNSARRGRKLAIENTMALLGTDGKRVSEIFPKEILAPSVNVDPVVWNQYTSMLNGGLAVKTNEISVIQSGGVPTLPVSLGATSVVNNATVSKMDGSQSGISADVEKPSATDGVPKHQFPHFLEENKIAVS
Setting: 8-mer, flanks averaged, mean of replicates
Sequence	E-score
CCGACAGC	-0.32
TCGGGGCA	-0.253
GTCTCTAA	0.121
AGCATATG	0.0735
AGGACCTG	-0.204
GCCATATA	0.239
AGCCGGCT	-0.328
GAACGACA	0.00796
CAGTCCTA	-0.0169
CCCGTTCC	-0.226
GACCCAGC	-0.324
CCGTTAAA	0.0476
CAGCCACG	-0.171
AACATTGA	0.256
GAACTGAC	-0.197
CATCGCGA	-0.0963
CAACTTCA	0.0682
AATTTATC	0.356
AAGGCGGG	-0.235
CTCTAGAG	-0.142

Further values, each from its own experiment
Substance	target	assay	system	conditions	how to read	quantity	value
PhoQ, residues 284 288 289 292 302 303 AAQSYM	PhoP, residues 12 14 15 18 19 SMASL (Escherichia coli, UniProt P23836)	Sort-seq, refers to: YFP reporter	E. coli	PhoQ-PhoP variant library, added: 10 µM Mg2+	baseline: high Mg2+ state, higher = stronger signaling	fold induction	1.16

Excerpt of the above (sample 2):
Sequence	fitted relative affinity
GACGGACTGGACTTTCGGGCCGTGCTA	-0.52 z-score
TTAGGTAACGACTTTCGGTTAGTGCTA	1.71 z-score
GACGATTTCGGGTATCGAGATGTGCTA	1.87 z-score
GACGGTATCGGTATGGGGACGTGCTAG	3.17 z-score
CAAACACTAATTTTCAATTCGTGCTAG	2.02 z-score
TTAGAACTAAGTATCGATTAGTGCTAG	0.425 z-score
ATAGGACTGGGTCTCGGTTAGTGCTAG	-0.466 z-score
CAGAGCATGGATCTGGGAACGTGCTAG	-0.639 z-score
GACGATCTCAGTTTCAAGACGTGCTAG	1.46 z-score
CGTCATTTCACAGTTAACCAGTGCTAG	1.27 z-score
TAAGGTTTCCTTTTCCTTTAGTGCTAG	12.2 z-score
